Published values collected from several papers.
± marks the error that the study gave.
OPRL1: Nociceptin receptor (OPRL1, Homo sapiens, UniProt P41146)

Amino acid sequences for entries named in this document (tags omitted). Chains listed by the source or under a name are the forms on record and can include a tag or linker. Residues count along the entry.
UniProt P41146, whole entry: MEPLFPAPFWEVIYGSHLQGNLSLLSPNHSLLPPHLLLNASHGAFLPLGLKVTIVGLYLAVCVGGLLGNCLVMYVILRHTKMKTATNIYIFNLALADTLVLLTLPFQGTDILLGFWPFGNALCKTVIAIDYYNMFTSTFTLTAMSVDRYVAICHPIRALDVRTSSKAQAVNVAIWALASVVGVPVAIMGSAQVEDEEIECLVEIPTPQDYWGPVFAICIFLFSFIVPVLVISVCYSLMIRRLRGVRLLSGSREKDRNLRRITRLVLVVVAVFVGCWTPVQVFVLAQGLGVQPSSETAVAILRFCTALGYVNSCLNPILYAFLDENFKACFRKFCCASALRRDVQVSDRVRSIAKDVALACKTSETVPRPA
UniProt P37136, 32-614 limits assumed: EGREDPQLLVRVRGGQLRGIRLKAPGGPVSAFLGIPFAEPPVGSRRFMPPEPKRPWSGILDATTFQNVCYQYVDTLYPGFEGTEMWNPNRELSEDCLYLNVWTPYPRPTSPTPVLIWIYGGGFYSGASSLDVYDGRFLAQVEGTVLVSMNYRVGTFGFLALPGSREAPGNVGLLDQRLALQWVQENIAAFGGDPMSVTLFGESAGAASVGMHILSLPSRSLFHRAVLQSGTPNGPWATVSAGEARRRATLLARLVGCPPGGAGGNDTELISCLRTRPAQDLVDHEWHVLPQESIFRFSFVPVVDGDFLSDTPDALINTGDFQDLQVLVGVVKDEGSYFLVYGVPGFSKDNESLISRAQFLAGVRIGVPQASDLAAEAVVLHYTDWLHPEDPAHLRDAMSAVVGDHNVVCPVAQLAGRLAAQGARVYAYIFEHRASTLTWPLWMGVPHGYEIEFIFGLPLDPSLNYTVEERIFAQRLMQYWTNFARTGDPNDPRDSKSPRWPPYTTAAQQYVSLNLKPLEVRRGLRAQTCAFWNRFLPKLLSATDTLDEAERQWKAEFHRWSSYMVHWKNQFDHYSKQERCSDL
UniProt P08510, 1-655 with tags or gaps DEL6-46: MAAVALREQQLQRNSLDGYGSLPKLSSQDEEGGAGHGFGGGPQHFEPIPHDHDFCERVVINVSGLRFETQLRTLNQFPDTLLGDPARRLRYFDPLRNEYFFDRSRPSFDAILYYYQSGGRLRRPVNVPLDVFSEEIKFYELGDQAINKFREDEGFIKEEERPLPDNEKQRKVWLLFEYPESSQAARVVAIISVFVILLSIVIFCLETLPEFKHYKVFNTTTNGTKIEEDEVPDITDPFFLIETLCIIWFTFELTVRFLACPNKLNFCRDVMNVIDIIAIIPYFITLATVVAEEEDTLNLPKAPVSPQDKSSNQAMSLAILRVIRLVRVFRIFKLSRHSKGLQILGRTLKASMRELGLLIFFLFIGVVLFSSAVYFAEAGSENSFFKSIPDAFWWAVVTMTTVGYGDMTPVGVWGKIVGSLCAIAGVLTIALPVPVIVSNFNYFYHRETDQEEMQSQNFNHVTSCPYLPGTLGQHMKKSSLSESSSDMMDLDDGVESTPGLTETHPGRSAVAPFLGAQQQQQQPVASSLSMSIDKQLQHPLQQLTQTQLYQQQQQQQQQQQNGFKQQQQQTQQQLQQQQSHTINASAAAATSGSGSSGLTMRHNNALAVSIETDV

Compound | target or system | assay | test system | conditions | scale | quantity | value
CCOP(=O)(OCC)ON1C(=O)c2cccc3cccc(c23)C1=O | Ache (Rattus norvegicus, UniProt P37136) | enzyme activity, inhibitor | rat, postnatal day 1, rat brain homogenate | 15 min, 37 °C | – | IC50 | 62 nM
CC[C@H](C)[C@H](NC(=O)[C@H](C)NC(=O)[C@H](CCC(=O)O)NC(=O)[C@H](CCC(=O)O)NC(=O)[C@H](CC(C)C)NC(=O)[C@H](CCCCN)NC(=O)[C@H](CCCCN)NC(=O)[C@H](CCSC)NC(=O)[C@H](CCC(=O)O)NC(=O)[C@H](Cc1ccc(O)cc1)NC(=O)[C@H](CCC(=O)O)NC(=O)[C@H](CC(C)C)NC(=O)[C@H](CC(=O)O)NC(=O)[C@H](CC(C)C)NC(=O)[C@H](Cc1ccccc1)NC(=O)[C@@H](NC(=O)[C@@H](NC(=O)[C@H](CC(N)=O)NC(=O)[C@@H](NC(=O)[C@H](CCC(N)=O)NC(=O)[C@H](CC(=O)O)NC(=O)[C@H](CC(C)C)NC(=O)[C@@H](N)CO)[C@@H](C)CC)C(C)C)[C@@H](C)O)C(=O)N[C@@H](CCCCN)C(=O)N[C@@H](CCCCN)C(=O)N[C@@H](CC(C)C)C(=O)N[C@@H](CCC(=O)O)C(=O)N[C@@H](CCC(=O)O)C(=O)N[C@@H](C)C(=O)N[C@@H](Cc1ccc(O)cc1)C(=O)N[C@H](C(=O)N[C@@H](CC(=O)O)C(=O)N[C@@H](CC(C)C)C(=O)N[C@@H](CCCCN)C(=O)N[C@@H](CCC(=O)O)C(=O)N[C@@H](CC(C)C)C(=O)O)[C@@H](C)CC | SARS-CoV-2 Beta pseudovirus | pseudovirus infection, inhibitor, luciferase | Caco-2 | 24 h | – | IC50 | 687 nM
CS(=O)(=O)C=CCNC(=O)c1ccc2[nH]c(=O)n(C3CC3)c2c1 | Venezuelan equine encephalitis virus | viral replication, nanoluciferase reporter | TC83-nLuc-nsP3 | – | – | IC50 | > 10000 nM
O=C(Nc1ccc(F)cc1)C1C(=O)N(O)C(=O)c2cc([N+](=O)[O-])ccc21 (centres unmarked) | Lymphocytic choriomeningitis mammarenavirus | minigenome reporter gene | – | 50 µM | relative to: DMSO | remaining activity | 69.3%
CN1C(=O)CCc2cc(C(=O)NCC=CS(C)(=O)=O)ccc21 | Venezuelan equine encephalitis virus | viral replication, nanoluciferase reporter | TC83-nLuc-nsP3 | – | – | IC50 | 3700 ± 800 nM
CC[C@H](C)[C@H](NC(=O)[C@H](C)NC(=O)[C@H](CCC(=O)O)NC(=O)[C@H](CCC(=O)O)NC(=O)[C@H](CC(C)C)NC(=O)[C@H](CCCCN)NC(=O)[C@H](CCCCN)NC(=O)[C@H](CCSC)NC(=O)[C@H](CCC(=O)O)NC(=O)[C@H](Cc1ccc(O)cc1)NC(=O)[C@H](CCC(=O)O)NC(=O)[C@H](CC(C)C)NC(=O)[C@H](CC(=O)O)NC(=O)[C@H](CC(C)C)NC(=O)[C@H](Cc1ccccc1)NC(=O)[C@@H](NC(=O)[C@@H](NC(=O)[C@H](CC(N)=O)NC(=O)[C@@H](NC(=O)[C@H](CCC(N)=O)NC(=O)[C@H](CC(=O)O)NC(=O)[C@H](CC(C)C)NC(=O)[C@@H](N)CO)[C@@H](C)CC)C(C)C)[C@@H](C)O)C(=O)N[C@@H](CCCCN)C(=O)N[C@@H](CCCCN)C(=O)N[C@@H](CC(C)C)C(=O)N[C@@H](CCC(=O)O)C(=O)N[C@@H](CCC(=O)O)C(=O)N[C@@H](CO)C(=O)N[C@@H](Cc1ccc(O)cc1)C(=O)N[C@H](C(=O)N[C@@H](CC(=O)O)C(=O)N[C@@H](CC(C)C)C(=O)N[C@@H](CCCCN)C(=O)N[C@@H](CCC(=O)O)C(=O)N[C@@H](CC(C)C)C(=O)O)[C@@H](C)CC | SARS-CoV-2 XBB.1.5 pseudovirus | pseudovirus infection, inhibitor, luciferase | Caco-2 | 24 h | – | IC50 | 702 nM
CC(C)(C)c1ccc(-c2cn(-c3ccc(C(=O)C=C(O)C(=O)O)cc3)nn2)cc1 | SARS-CoV-2 | viral replication | VeroE6 | 50 µM | – | inhibition | 64%
Cc1ccccc1S(=O)(=O)Nc1cccc(C(=O)NC2CCN(c3ncnc4[nH]cnc34)CC2)c1 | SARS-CoV-2 | – | Wuhan-Hu-1 | 0.823 µM | relative to: untreated infected cells | relative infection | 59.6%
O=C(O)C(O)=CC(=O)c1ccc2cc(O)c(O)cc2c1 | Lymphocytic choriomeningitis mammarenavirus | minigenome reporter gene | – | 50 µM | relative to: DMSO | remaining activity | 110%
CC[C@H](C)[C@H](NC(=O)[C@H](C)NC(=O)[C@H](CCC(=O)O)NC(=O)[C@H](CCC(=O)O)NC(=O)[C@H](CC(C)C)NC(=O)[C@H](CCCCN)NC(=O)[C@H](CCCCN)NC(=O)[C@H](CCSC)NC(=O)[C@H](CCC(=O)O)NC(=O)[C@H](Cc1ccc(O)cc1)NC(=O)[C@H](CCC(=O)O)NC(=O)[C@H](CC(C)C)NC(=O)[C@H](CC(=O)O)NC(=O)[C@H](CC(C)C)NC(=O)[C@H](Cc1ccccc1)NC(=O)[C@H](Cc1ccc(O)cc1)NC(=O)[C@@H](NC(=O)[C@H](CC(N)=O)NC(=O)[C@@H](NC(=O)[C@H](CCC(N)=O)NC(=O)[C@H](CC(=O)O)NC(=O)[C@H](CC(C)C)NC(=O)[C@@H](N)CO)[C@@H](C)CC)C(C)C)C(=O)N[C@@H](CCCCN)C(=O)N[C@@H](CCCCN)C(=O)N[C@@H](CC(C)C)C(=O)N[C@@H](CCC(=O)O)C(=O)N[C@@H](CCC(=O)O)C(=O)N[C@H](C(=O)N[C@@H](Cc1ccc(O)cc1)C(=O)N[C@H](C(=O)N[C@@H](CC(=O)O)C(=O)N[C@@H](CC(C)C)C(=O)N[C@@H](CCCCN)C(=O)N[C@@H](CCC(=O)O)C(=O)N[C@@H](CC(C)C)C(=O)O)[C@@H](C)CC)[C@@H](C)O | SARS-CoV-2 XBB.1.5 pseudovirus | pseudovirus infection, inhibitor, luciferase | Caco-2 | 24 h, dual mutations | – | IC50 | 174 nM
Cc1ccc(S(=O)(=O)Nc2cccc(C(=O)NC3CCN(c4ncnc5[nH]cnc45)CC3)c2)cc1Cl | SARS-CoV-2 | – | Wuhan-Hu-1 | 7.407 µM | relative to: untreated infected cells | relative infection | 38.8%
CNC(=O)CC1C(=O)N(C2CCN([C@H]3CC[C@@H](C(C)C)CC3)CC2)c2ccccc21 (some centres unmarked) | OPRL1 | G protein interaction, BRET | HEK293 membranes | concentration not given, unit not given | relative to: N/OFQ maximal effect | intrinsic activity | 0.99 ± 0.08
CC[C@H](C)[C@H](NC(=O)[C@H](C)NC(=O)[C@H](CCC(=O)O)NC(=O)[C@H](CCC(=O)O)NC(=O)[C@H](CC(C)C)NC(=O)[C@H](CCCCN)NC(=O)[C@H](CCCCN)NC(=O)[C@H](CCSC)NC(=O)[C@H](CCC(=O)O)NC(=O)[C@H](Cc1ccc(O)cc1)NC(=O)[C@H](CCC(=O)O)NC(=O)[C@H](CC(C)C)NC(=O)[C@H](CC(=O)O)NC(=O)[C@H](CC(C)C)NC(=O)[C@H](Cc1ccccc1)NC(=O)[C@@H](NC(=O)[C@@H](NC(=O)[C@H](CC(N)=O)NC(=O)[C@@H](NC(=O)[C@H](CCC(N)=O)NC(=O)[C@H](CC(=O)O)NC(=O)[C@H](CC(C)C)NC(=O)[C@@H](N)CO)[C@@H](C)CC)C(C)C)[C@@H](C)O)C(=O)N[C@@H](CCCCN)C(=O)N[C@@H](CCCCN)C(=O)N[C@@H](CC(C)C)C(=O)N[C@@H](CCC(=O)O)C(=O)N[C@@H](CCC(=O)O)C(=O)N[C@H](C(=O)N[C@@H](Cc1ccc(O)cc1)C(=O)N[C@H](C(=O)N[C@@H](CC(=O)O)C(=O)N[C@@H](CC(C)C)C(=O)N[C@@H](CCCCN)C(=O)N[C@@H](CCC(=O)O)C(=O)N[C@@H](CC(C)C)C(=O)O)[C@@H](C)CC)[C@@H](C)O | SARS-CoV-2 JN.1 pseudovirus | pseudovirus infection, inhibitor, luciferase | Caco-2 | 24 h | – | IC50 | 247 nM
CC(C)[C@H]1CC[C@@H](N2CCC3(CC2)C(=O)NCN3c2ccccc2)CC1 | OPRL1 | G protein activation, GTPγS binding | CHO membranes | – | relative to: compound over N/OFQ EC50 | concentration ratio | 14
c1ccc2c(NC3CCNCC3)nc(NCc3ccc(CNCCCNC4CCCCC4)cc3)nc2c1 | CEM | – | – | 72 h | – | CC50 | > 50000 nM
CC[C@H](C)[C@@H]1NC(=O)[C@H](CCCNC(=N)N)NC(=O)[C@@H](N)CSSC[C@@H]2NC(=O)[C@@H]3CSSC[C@@H](C(=O)N[C@H](C(=O)O)C(C)C)NC(=O)[C@H](CCCCN)NC(=O)[C@H](CC(N)=O)NC(=O)[C@H](Cc4ccccc4)NC(=O)[C@H](CCCNC(=N)N)NC(=O)[C@H](CC(N)=O)NC(=O)[C@H](CSSC[C@H](NC(=O)[C@H](CCCCN)NC(=O)[C@H](CCC(N)=O)NC(=O)[C@H](CC(N)=O)NC(=O)[C@@H]4C[C@@H](O)CN4C1=O)C(=O)N[C@@H](Cc1ccccc1)C(=O)N[C@@H](CCC(N)=O)C(=O)N[C@@H](Cc1c[nH]cn1)C(=O)N[C@@H](CC(C)C)C(=O)N[C@@H](CC(=O)O)C(=O)N[C@@H](CC(=O)O)C(=O)N3)NC(=O)[C@H](CCCCN)NC(=O)[C@H](CCCNC(=N)N)NC(=O)[C@H](CO)NC2=O | Sh (Drosophila melanogaster, UniProt P08510, del6-46) | potassium current, outside-out patch clamp | – | chronic application, zero voltage, internal K 100, with: 1 mM TEA | – | Kd | 480 ± 60 nM
O=C(NC1CCN(c2ncnc3[nH]cnc23)CC1)c1cccc(NS(=O)(=O)c2ccc([N+](=O)[O-])cc2)c1 | SARS-CoV-2 | – | Wuhan-Hu-1 | 7.407 µM | relative to: untreated infected cells | relative infection | 26.4%

A few entries again:
Compound | target or system | assay | test system | conditions | scale | quantity | value
c1ccc2c(NC3CCNCC3)nc(NCc3ccc(CNCCCNC4CCCCC4)cc3)nc2c1 | CEM | – | – | 72 h | – | CC50 | > 50000 nM
O=C(Nc1ccc(F)cc1)C1C(=O)N(O)C(=O)c2cc([N+](=O)[O-])ccc21 (centres unmarked) | Lymphocytic choriomeningitis mammarenavirus | minigenome reporter gene | – | 50 µM | relative to: DMSO | remaining activity | 69.3%
